Measurements from different studies.
Each line is one published result; not all experiments were run side by side. Numbers after ± are the reported error.
blaNDM-1: Metallo-beta-lactamase type 2 (blaNDM-1, Klebsiella pneumoniae, UniProt C7C422)
Sequence of UniProt C7C422 (whole entry, looked up): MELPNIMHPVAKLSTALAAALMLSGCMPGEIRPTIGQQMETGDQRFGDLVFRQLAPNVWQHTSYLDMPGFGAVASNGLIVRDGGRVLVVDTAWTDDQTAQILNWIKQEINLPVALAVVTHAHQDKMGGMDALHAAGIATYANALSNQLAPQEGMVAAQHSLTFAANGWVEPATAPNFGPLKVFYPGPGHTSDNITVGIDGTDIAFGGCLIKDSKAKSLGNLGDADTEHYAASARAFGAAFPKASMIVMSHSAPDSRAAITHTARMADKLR
Proteasome subunit beta type-3/PSMB7: Proteasome subunit beta type-3/PSMB7 (Homo sapiens, UniProt P49720+Q99436)
Sequence of UniProt Q99436 (whole entry, looked up): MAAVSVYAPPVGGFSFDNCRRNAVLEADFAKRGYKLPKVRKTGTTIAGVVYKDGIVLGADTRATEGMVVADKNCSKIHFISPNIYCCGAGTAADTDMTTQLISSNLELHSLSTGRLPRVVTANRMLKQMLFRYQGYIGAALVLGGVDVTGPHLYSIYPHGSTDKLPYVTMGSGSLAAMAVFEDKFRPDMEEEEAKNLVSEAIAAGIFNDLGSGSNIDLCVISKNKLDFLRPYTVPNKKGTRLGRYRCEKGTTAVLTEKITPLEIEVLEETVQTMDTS
Sequence of UniProt P49720 (whole entry, looked up): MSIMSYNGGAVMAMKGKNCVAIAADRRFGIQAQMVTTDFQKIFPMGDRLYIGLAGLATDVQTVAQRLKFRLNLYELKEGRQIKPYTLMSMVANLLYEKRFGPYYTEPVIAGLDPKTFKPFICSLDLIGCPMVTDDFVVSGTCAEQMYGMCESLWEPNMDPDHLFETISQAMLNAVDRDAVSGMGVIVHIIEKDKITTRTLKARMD
CXCR4: C-X-C chemokine receptor type 4 (CXCR4, Homo sapiens, UniProt P61073)
Sequence of UniProt P61073 (whole entry, looked up): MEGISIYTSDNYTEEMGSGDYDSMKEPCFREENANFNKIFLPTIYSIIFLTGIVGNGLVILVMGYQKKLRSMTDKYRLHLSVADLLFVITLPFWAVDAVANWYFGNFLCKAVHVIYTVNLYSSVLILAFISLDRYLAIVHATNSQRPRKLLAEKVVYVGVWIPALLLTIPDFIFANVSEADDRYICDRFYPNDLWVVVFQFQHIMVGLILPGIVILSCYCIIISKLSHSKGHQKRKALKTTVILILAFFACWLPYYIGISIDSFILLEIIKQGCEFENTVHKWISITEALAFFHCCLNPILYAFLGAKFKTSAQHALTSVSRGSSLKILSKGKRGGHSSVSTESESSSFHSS
SIRT5: NAD-dependent protein deacylase sirtuin-5, mitochondrial (SIRT5, Homo sapiens, UniProt Q9NXA8)
Sequence of UniProt Q9NXA8 (whole entry, looked up): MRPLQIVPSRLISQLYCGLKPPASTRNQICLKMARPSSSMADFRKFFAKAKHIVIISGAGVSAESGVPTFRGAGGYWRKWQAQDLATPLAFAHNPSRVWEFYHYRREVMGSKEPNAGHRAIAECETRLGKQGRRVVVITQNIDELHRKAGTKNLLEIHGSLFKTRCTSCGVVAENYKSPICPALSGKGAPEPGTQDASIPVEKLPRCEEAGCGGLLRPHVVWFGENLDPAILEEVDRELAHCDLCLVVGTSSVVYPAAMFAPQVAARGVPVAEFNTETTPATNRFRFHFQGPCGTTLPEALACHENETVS
Formate-nitrite transporter: Formate-nitrite transporter (Plasmodium falciparum, UniProt O77389)
Sequence of UniProt O77389 (whole entry, looked up): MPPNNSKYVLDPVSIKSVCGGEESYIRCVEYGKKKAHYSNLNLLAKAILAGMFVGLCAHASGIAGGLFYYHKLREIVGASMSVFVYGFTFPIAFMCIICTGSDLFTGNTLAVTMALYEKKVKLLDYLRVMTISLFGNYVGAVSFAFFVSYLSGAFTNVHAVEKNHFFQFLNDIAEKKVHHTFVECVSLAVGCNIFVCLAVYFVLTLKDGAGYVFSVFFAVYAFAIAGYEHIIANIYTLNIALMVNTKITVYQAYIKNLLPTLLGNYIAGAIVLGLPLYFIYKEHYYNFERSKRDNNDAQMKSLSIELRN
lasR: Transcriptional activator protein LasR (lasR, Pseudomonas aeruginosa, UniProt P25084)
Sequence of UniProt P25084 (whole entry, looked up): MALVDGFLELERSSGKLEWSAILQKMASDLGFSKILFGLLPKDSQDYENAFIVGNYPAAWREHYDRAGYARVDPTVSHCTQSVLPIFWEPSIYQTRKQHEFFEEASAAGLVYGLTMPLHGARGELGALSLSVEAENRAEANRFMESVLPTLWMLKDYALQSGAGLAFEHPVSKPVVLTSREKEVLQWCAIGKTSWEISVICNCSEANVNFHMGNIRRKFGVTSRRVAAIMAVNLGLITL
F2: Prothrombin (F2, Homo sapiens, UniProt P00734)
Sequence of UniProt Q2FDS6 (whole entry, looked up): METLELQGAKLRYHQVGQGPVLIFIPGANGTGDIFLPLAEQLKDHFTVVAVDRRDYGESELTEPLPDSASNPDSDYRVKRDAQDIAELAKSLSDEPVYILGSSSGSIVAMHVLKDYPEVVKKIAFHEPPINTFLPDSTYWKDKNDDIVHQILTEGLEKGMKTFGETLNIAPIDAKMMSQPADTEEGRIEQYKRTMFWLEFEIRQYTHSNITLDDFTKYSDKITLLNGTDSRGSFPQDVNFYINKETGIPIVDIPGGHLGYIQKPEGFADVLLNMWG
Sequence of UniProt Q2NL67 (whole entry, looked up): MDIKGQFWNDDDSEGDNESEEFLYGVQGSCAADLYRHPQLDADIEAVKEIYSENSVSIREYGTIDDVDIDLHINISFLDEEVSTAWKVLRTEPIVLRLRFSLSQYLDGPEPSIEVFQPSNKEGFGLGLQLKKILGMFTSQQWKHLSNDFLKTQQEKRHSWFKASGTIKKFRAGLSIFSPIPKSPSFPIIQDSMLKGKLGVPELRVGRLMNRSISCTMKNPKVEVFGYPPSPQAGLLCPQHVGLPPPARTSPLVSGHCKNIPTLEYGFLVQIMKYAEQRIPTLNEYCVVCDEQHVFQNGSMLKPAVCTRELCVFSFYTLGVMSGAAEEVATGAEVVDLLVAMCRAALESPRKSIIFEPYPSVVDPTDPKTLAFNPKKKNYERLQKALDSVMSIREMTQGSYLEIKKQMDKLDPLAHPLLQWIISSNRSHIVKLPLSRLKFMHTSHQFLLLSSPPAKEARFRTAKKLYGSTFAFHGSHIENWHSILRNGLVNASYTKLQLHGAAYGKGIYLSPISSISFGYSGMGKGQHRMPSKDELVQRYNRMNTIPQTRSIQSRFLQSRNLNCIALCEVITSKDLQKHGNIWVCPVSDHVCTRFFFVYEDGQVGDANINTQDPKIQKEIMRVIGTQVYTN
Sequence of UniProt P97583 (whole entry, looked up): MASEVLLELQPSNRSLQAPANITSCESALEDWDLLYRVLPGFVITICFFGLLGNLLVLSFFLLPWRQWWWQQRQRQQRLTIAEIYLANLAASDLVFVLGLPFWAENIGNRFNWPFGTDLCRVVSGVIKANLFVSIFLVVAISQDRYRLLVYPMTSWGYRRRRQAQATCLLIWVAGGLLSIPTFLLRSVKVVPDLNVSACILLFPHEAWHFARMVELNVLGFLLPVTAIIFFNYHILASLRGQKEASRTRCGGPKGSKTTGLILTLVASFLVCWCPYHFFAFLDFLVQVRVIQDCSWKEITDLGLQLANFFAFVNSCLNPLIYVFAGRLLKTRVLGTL
Sequence of UniProt P33261 (whole entry, looked up): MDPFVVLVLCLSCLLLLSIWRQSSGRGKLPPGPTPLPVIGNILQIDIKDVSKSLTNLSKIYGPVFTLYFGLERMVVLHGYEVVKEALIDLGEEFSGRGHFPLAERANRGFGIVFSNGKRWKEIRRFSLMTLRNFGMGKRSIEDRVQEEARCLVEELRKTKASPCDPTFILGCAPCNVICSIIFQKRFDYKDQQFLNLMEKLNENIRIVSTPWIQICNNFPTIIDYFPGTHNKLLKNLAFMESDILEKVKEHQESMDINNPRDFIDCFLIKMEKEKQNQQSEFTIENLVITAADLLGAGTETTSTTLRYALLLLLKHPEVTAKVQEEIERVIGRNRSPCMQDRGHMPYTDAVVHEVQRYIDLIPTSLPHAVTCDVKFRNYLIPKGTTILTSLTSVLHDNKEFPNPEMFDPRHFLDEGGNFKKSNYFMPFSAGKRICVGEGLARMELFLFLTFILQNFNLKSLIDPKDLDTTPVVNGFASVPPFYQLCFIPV
Sequence of UniProt O55040 (whole entry, looked up): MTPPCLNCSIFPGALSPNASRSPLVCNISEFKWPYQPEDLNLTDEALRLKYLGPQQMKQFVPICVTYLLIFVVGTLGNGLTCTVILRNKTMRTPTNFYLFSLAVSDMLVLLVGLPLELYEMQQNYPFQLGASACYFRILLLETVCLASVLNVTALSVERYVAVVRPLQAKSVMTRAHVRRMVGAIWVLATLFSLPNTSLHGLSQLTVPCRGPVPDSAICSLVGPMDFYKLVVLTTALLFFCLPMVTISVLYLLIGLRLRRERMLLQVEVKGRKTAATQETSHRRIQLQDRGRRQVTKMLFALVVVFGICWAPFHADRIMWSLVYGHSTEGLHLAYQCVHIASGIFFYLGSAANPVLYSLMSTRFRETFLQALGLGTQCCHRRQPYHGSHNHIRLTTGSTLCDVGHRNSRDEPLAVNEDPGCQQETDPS
Sequence of UniProt Q8IXJ6 (whole entry, looked up): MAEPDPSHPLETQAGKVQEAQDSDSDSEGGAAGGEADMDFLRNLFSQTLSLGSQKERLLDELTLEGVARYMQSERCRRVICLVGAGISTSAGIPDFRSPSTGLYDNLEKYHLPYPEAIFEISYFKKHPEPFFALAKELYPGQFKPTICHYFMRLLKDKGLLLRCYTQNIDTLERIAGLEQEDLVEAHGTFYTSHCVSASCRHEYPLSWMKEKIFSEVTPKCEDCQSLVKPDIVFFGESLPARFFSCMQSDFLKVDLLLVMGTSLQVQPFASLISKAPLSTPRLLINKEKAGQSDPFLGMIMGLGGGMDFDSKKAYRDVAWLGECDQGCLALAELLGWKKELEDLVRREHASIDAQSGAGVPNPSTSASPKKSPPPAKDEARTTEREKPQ
Sequence of UniProt P15090 (whole entry, looked up): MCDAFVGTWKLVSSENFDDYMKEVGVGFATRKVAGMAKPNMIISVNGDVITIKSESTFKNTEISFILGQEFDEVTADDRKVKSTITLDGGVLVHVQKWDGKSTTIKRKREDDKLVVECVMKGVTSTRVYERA
Sequence of UniProt P0A6M2 (whole entry, unmodified, looked up): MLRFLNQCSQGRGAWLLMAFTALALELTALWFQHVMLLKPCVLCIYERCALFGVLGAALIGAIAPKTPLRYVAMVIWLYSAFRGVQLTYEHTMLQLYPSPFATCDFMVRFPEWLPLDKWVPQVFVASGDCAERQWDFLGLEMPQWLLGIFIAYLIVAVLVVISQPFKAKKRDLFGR

O=C(Cc1ccccc1)N[C@H](C(=O)O)[C@@H]1N=C(C(=O)O)C(CS[C@H](Cc2ccccc2)C(=O)O)CS1 (some centres unmarked)
IC50 (blaNDM-1; enzyme activity, inhibitor, absorbance): > 100 µM

CC[C@H](C)[C@@H]1NC(=O)[C@@H]2CCCN2C(=O)[C@@H](CS)NC(=O)[C@H](CC(C)C)NC(=O)[C@@H](CCCNC(=N)N)NC(=O)[C@@H](CCCNC(=N)N)NC(=O)[C@H](CCC(=O)O)NC(=O)[C@@H]2CCCN2C1=O
IC50 (blaNDM-1; enzyme activity, inhibitor, absorbance): 1.15 µM

CC(C)C[C@H](NC(=O)[C@H](Cc1ccccc1)NC(=O)[C@H](CCCNC(=N)N)NC(=O)[C@H](C)NC(=O)CNC(=O)[C@@H]1CCCN1)B(O)O
IC50 (Proteasome subunit beta type-3/PSMB7; trypsin-like activity, inhibitor; human proteasome 10 nM; together with: Boc-LRR-AMC): 0.085 µM

CC(C)C[C@@H](N)C(=O)NCC(=O)N[C@H](C)C(=O)N[C@H](CO)C(=O)N[C@H](Cc1c[nH]c2ccccc12)C(=O)N[C@H](Cc1c[nH]cn1)C(=O)N[C@H](CCCNC(=N)N)C(=O)N1CCC[C@@H]1C(=O)N[C@H](CC(=O)O)C(=O)N[C@H](CCCCN)C(=O)N[C@H](CCCCN)C(=O)N[C@H](CCCNC(=N)N)C(=O)NCCCCCC(=O)N[C@@H](CCCCN)C(=O)N[C@@H](CCCNC(=N)N)C(=O)N[C@@H](CCCCN)C(=O)N[C@@H](CS)C(=O)N[C@H](C(=O)N[C@@H](CCCNC(=N)N)C(=O)N1CCC[C@H]1C(=O)N[C@@H](CC(N)=O)C(=O)N[C@@H](CC(N)=O)C(=O)N[C@@H](CC(N)=O)C(=O)N[C@H](C(N)=O)[C@@H](C)O)[C@@H](C)O
IC50 (CXCR4; antagonist; concentration not given): 0.048 µM

CC[C@H](C)[C@@H]1NC(=O)[C@@H]2CCCN2C(=O)[C@@H](CS)NC(=O)[C@H](CC(C)C)NC(=O)[C@@H](CCCNC(=N)N)NC(=O)[C@@H]([C@H](C)O)NC(=O)C(C)(C)NC(=O)[C@@H]2CCCN2C1=O
IC50 (blaNDM-1; enzyme activity, inhibitor, absorbance): 17.5 µM

CC1(C)OB(c2cnc3c(c2)CC(=O)N3)OC1(C)C
IC50 (Uncharacterized hydrolase SAUSA300_2518 (Staphylococcus aureus, UniProt Q2FDS6); enzyme activity, inhibitor): > 50 µM

N=C(N)NCCC[C@H](NC(=O)[C@H](CCCCNC(=O)c1cncc(OS(=O)(=O)F)c1)NS(=O)(=O)c1cccc(F)c1)C(=O)NC1CCC1
IC50 (SIRT5; inhibitor, fluorogenic; pre-incubation 24 h, together with: NAD+ 500 µM): 6.1 ± 0.3 µM

C#CCNC(=O)c1ccc(S(=O)(=O)N[C@@H](CCCCNC(C)=S)C(=O)N[C@@H](CCCNC(=N)N)C(=O)N[C@@H](CC2CCCCC2)C(=O)N[C@H](CCCCN)C(=O)N[C@@H](CC2CCCCC2)C(N)=O)cc1
IC50 (SIRT2 (Homo sapiens, UniProt Q8IXJ6); enzyme activity, inhibitor, fluorescence): 1.62 µM

CC(C)(COP(=O)(O)OP(=O)(O)OC[C@H]1O[C@@H](n2cnc3c(N)ncnc32)[C@H](O)[C@@H]1OP(=O)(O)O)[C@@H](O)C(=O)NCCC(=O)NCCSCC(=O)N[C@@H](CO)C(=O)NCC(=O)N[C@@H](CCCNC(=N)N)C(=O)N[C@@H](CCCCN)C(=O)N[C@@H](CCCCN)C(=O)N[C@@H](CCCNC(=N)N)C(=O)N[C@@H](CCCNC(=N)N)C(=O)N[C@@H](CCC(N)=O)C(=O)N[C@@H](CCCNC(=N)N)C(=O)N[C@@H](CCCNC(=N)N)C(=O)N[C@@H](CCCNC(=N)N)C(N)=O
IC50 (NAA40 (Homo sapiens, UniProt Q86UY6); enzyme activity, inhibitor, fluorescence): 0.337 µM

CC[C@H](C)[C@H](NC(=O)[C@H](CCCNC(=N)N)NC(=O)[C@H](C)NC(=O)[C@@H](N)CC(C)C)C(=O)N[C@@H](CCCNC(=N)N)C(=O)N1CCC[C@H]1C(=O)N[C@@H](CCCCN)C(=O)N[C@@H](CC(C)C)C(=O)N[C@@H](CCCCN)C(=O)O
IC50 (B1 bradykinin receptor (Rattus norvegicus, UniProt P97583); ligand displacement, radioligand; cell membranes): 0.1 µM

O=C(C=C(O)C(F)(F)c1ccccc1)c1cccnc1
IC50 (Formate-nitrite transporter; L-lactate transport, inhibitor, fluorescence; yeast; pH 6.8, together with: L-lactate 1 mM): 0.96 ± 0.132 µM

O=C(c1cc(Cc2n[nH]c(=O)c3ccccc23)ccc1F)N1CC(CNC2CC2)C1
IC50 (PARP6 (Homo sapiens, UniProt Q2NL67); enzyme activity, inhibitor): > 10 µM

OC[C@@H]1[C@@H](O)[C@H](O)[C@@H](O)[C@@H]2N[C@H]12
IC50 (Oligosaccharide 4-alpha-D-glucosyltransferase (agd31B, Cellvibrio japonicus, UniProt B3PEE6); enzyme activity, inhibitor; 30 min preincubation, pH 6.5, 25 °C): > 100 µM

CCC(C)C1OC2(CCC1C)CC1CC(C/C=C(\C)C(OC3CC(OC)C(OC4CC(OC)C(O)C(C)O4)C(C)O3)C(C)/C=C/C=C3\COC4C(O)C(C)=CC(C(=O)O1)C34O)O2 (centres unmarked)
IC50 (Anoctamin-1 (ANO1, Homo sapiens, UniProt Q5XXA6, del476-501); inhibitor): 29.1 ± 2.7 µM

C#CCNC(=O)c1ccc(S(=O)(=O)N[C@@H](CCCCNC(=O)c2cncc(OS(=O)(=O)F)c2)C(=O)N[C@@H](Cc2c[nH]c3ccccc23)C(=O)NC2CCC2)cc1
IC50 (SIRT5; inhibitor, fluorogenic; 4 h preincubation, His-tagged enzyme 150 nM, together with: NAD+ 500 µM): 40 ± 14 µM

Cc1ccc2c(n1)c(-c1cccc(S(C)(=O)=O)c1)c(C)n2C/C(F)=C/CN
IC50 (CYP2C19 (Homo sapiens, UniProt P33261); enzyme activity, inhibitor; human liver microsomes; without NADPH preincubation): 0.49 µM

C#CCNC(=O)c1ccc([P+](CCCC(=O)N[C@@H](CCCCNC(=O)c2cncc(OS(=O)(=O)F)c2)C(=O)N[C@@H](CCCNC(=N)N)C(=O)NC2CCC2)(c2ccccc2)c2ccccc2)cc1
IC50 (SIRT5; inhibitor, fluorogenic; pre-incubation 24 h, together with: NAD+ 500 µM): 4.9 ± 0.3 µM

CCCCCCCCCCCCCCCCCC(=O)NC[C@H]1CC[C@H](C(=O)N[C@@H](CCC(=O)NCCCOCCOCCOCCCNC(=O)COCC(=O)N[C@@H](Cc2ccc(O)cc2)C(=O)NC(C)(Cc2ccccc2)C(=O)N[C@@H](CC(C)C)C(=O)N[C@@H](CCCC)C(=O)N[C@@H](CCCNC(=N)N)C(=O)N2CCC[C@H]2C(=O)N[C@@H](CCCNC(=N)NC)C(=O)N[C@@H](CC(N)=O)C(N)=O)C(=O)O)CC1 (some centres unmarked)
IC50 (Neuromedin-U receptor 1 (Mus musculus, UniProt O55040); IP-1 accumulation, antagonist; 30 min preincubation, together with: 0.8 nM mouse NMU-23): 0.027 µM

COc1cc(C[C@H](C)[C@H](C)Cc2ccc3c(c2)OCO3)ccc1O
IC50 (Prolyl endopeptidase (Mus musculus, UniProt Q9QUR6); enzyme activity, inhibitor, fluorescence): > 100 µM

CCCCCC(=O)CC(=O)N[C@H]1CCOC1=O
IC50 (lasR; reporter gene, antagonist; Escherichia coli, JLD271 with LasR plasmid; together with: OdDHL 0.5 nM): 0.12 µM

CCN(C)C(=O)Oc1ccccc1/C=C1\Cc2cc(OC)c(OC)cc2C1=O
IC50 (F2; enzyme activity, inhibitor): > 10 µM

N=C(N)NCCC[C@@H]1NC(=O)[C@H](CCCNc2ccc([N+](=O)[O-])cc2[N+](=O)[O-])NC(=O)[C@@H](Cc2ccc(O)cc2)NC(=O)CNC(=O)[C@H](Cc2ccc3ccccc3c2)NC1=O
IC50 (CXCR4): 0.0977 ± 0.0103 µM

CCC(C(=O)Nc1ccccc1C)n1cccc2nc(SCc3ccc(F)cc3)nc1-2 (centres unmarked)
IC50 (F2; enzyme activity, inhibitor): > 100 µM

CC1(C)NC(=O)[C@@H](CCC(=O)O)NC(=O)[C@H](CCC(=O)O)NC(=O)[C@H](CCCN)NC(=O)[C@H](C(c2ccccc2)c2ccccc2)NC(=O)[C@@H]2CCCN2C(=O)[C@H]2CCCN2C(=O)[C@H](CC(N)=O)NC1=O
IC50 (blaNDM-1; enzyme activity, inhibitor, absorbance): 111 µM

O=c1c(N2CCCC2)c(Cl)cnn1-c1ccccc1
IC50 (Disulfide bond formation protein B (Escherichia coli, UniProt P0A6M2, C49V/C8A); enzyme activity, inhibitor): 7.16 to 9.71 µM

CC(C)CNc1ccc(C(=O)C=C(O)C(F)(F)C(F)(F)F)cn1
IC50 (Formate-nitrite transporter; L-lactate transport, inhibitor, fluorescence; yeast; pH 6.8, together with: L-lactate 1 mM): 0.096 ± 0.015 µM

NC(=O)c1ccc(N)nc1
IC50 (NNMT (Homo sapiens, UniProt P40261); enzyme activity in cells, inhibitor): 2 µM

CN1CCCCC1C(=O)NC(Cc1ccc(-c2ccccc2)cc1)B(O)O (centres unmarked)
IC50 (Proteasome subunit beta type-3/PSMB7; β2c trypsin-like activity, inhibitor; constitutive proteasome, together with: Ac-KQL-AMC): > 10 µM

CC(C)(C)Nc1ccc(C(=O)C=C(O)C(F)(F)C(F)(F)F)cn1
IC50 (Formate-nitrite transporter; L-lactate transport, inhibitor, fluorescence; yeast; pH 6.8, together with: L-lactate 1 mM): 1.09 ± 0.252 µM

O=C(O)C(F)(OC(F)(F)C(F)(F)C(F)(F)F)C(F)(F)F (centres unmarked)
IC50 (FABP4 (Homo sapiens, UniProt P15090); ligand displacement, fluorescence; pH 7.5): 47.3 µM

O=C(CCCCCCCCCN=C=S)CC(=O)N[C@H]1CCOC1=O
IC50 (lasR; reporter gene, antagonist; Escherichia coli, JLD271 with LasR plasmid; together with: OdDHL 2 nM): no inhibition

CC(C)C[C@@H]1NC(=O)[C@@H]2CCCN2C(=O)[C@@H](CS)NC(=O)[C@H](Cc2ccc(O)cc2)NC(=O)[C@@H](CCCNC(=N)N)NC(=O)[C@@H]([C@H](C)O)NC(=O)[C@H](CCC(=O)O)NC(=O)[C@@H]2CCCN2C1=O
IC50 (blaNDM-1; enzyme activity, inhibitor, absorbance): 18.8 µM

Nc1ccc(C(=O)C=C(O)C(F)(F)C(F)(F)F)cn1
IC50 (Formate-nitrite transporter; L-lactate transport, inhibitor, fluorescence; yeast; pH 6.8, together with: L-lactate 1 mM): 0.025 ± 0.003 µM

CSCC[C@H](NC(=O)[C@@H](N)CCCNC(=N)N)C(=O)N[C@@H](CO)C(=O)N[C@@H](C)C(=O)N1CCC[C@H]1C(=O)N[C@@H](CO)C(=O)N[C@H](C(=O)NCC(=O)NCC(=O)N[C@H](C(=O)O)C(C)C)[C@@H](C)O
IC50 (HLA class I histocompatibility antigen, A alpha chain, allele A*02:17 (Homo sapiens, UniProt P04439); binding): 18.6 µM

CC(C)C[C@H](NC(=O)[C@H](Cc1ccc(CN)cc1)NC(=O)[C@H](Cc1ccccc1)N=[N+]=[N-])C(=O)N[C@@H](CC1CCC2CCCCC2C1)C(=O)[C@@]1(C)CO1 (some centres unmarked)
IC50 (PSMB7 (Homo sapiens, UniProt Q99436); inhibitor, competitive ABPP; Raji cell lysate; constitutive proteasome β2c): 0.233 µM

O=C(CCc1ccc(Br)cc1)N[C@H]1CCOC1=O
IC50 (lasR; reporter gene, antagonist; PAO-JP2; together with: OdDHL 30 nM): 7.3 µM

CC[C@H](C)[C@H](NC(=O)[C@H](CCC(=O)O)NC(=O)[C@H](C)NC(=O)[C@@H](NC(=O)[C@H](Cc1c[nH]cn1)NC(=O)[C@@H](NC(=O)[C@H](CCC(=O)O)NC(=O)[C@H](C)NC(=O)[C@H]1CCC[C@@H]1NC(=O)[C@H](CC(C)C)NC(=O)[C@H](Cc1c[nH]cn1)NC(=O)[C@H](Cc1c[nH]cn1)NC(=O)[C@H](CC(C)C)NC(=O)[C@H](Cc1ccccc1)NC(=O)[C@H](Cc1ccccc1)NC(=O)[C@H](CCCNC(=N)N)NC(=O)[C@H](CCCNC(=N)N)NC(=O)[C@H](CCCNC(=N)N)NC(=O)[C@H](CC(C)C)NC(=O)[C@H](CC(=O)O)NC(=O)[C@H](CCC(N)=O)NC(=O)[C@@H](NC(=O)[C@H](CO)NC(=O)[C@H](CCCCN)NC(=O)CNC(=O)[C@H](CCCCN)NC(=O)[C@H](CC(=O)O)NC(=O)[C@H](Cc1c[nH]cn1)NC(=O)[C@H](CC(C)C)NC(=O)[C@H](CC(C)C)NC(=O)[C@H](CCC(N)=O)NC(=O)[C@H](Cc1c[nH]cn1)NC(=O)[C@H](CCC(=O)O)NC(=O)[C@H](CO)NC(=O)[C@@H](NC(=O)[C@H](C)N)C(C)C)[C@@H](C)CC)[C@@H](C)CC)[C@@H](C)O)C(N)=O
IC50 (PTH1R (Homo sapiens, UniProt Q03431); ligand displacement, radioligand; cell membranes): 0.0151 µM

O=C(C=C(O)C(F)(F)C(F)(F)F)c1ccc(NC(=O)c2ccccc2)nc1
IC50 (Formate-nitrite transporter; L-lactate transport, inhibitor, fluorescence; yeast; pH 6.8, together with: L-lactate 1 mM): 0.237 ± 0.009 µM

For quick reference, copied from above:
OC[C@@H]1[C@@H](O)[C@H](O)[C@@H](O)[C@@H]2N[C@H]12
IC50 (Oligosaccharide 4-alpha-D-glucosyltransferase (agd31B, Cellvibrio japonicus, UniProt B3PEE6); enzyme activity, inhibitor; 30 min preincubation, pH 6.5, 25 °C): > 100 µM

CCC(C)C1OC2(CCC1C)CC1CC(C/C=C(\C)C(OC3CC(OC)C(OC4CC(OC)C(O)C(C)O4)C(C)O3)C(C)/C=C/C=C3\COC4C(O)C(C)=CC(C(=O)O1)C34O)O2 (centres unmarked)
IC50 (Anoctamin-1 (ANO1, Homo sapiens, UniProt Q5XXA6, del476-501); inhibitor): 29.1 ± 2.7 µM
